Published values from different studies.
Protocols differ between the studies behind these lines. ± marks the error that the study gave. Converted amounts (≈) assume the structure as drawn.
UniProt Q12866, sequence (whole entry, looked up): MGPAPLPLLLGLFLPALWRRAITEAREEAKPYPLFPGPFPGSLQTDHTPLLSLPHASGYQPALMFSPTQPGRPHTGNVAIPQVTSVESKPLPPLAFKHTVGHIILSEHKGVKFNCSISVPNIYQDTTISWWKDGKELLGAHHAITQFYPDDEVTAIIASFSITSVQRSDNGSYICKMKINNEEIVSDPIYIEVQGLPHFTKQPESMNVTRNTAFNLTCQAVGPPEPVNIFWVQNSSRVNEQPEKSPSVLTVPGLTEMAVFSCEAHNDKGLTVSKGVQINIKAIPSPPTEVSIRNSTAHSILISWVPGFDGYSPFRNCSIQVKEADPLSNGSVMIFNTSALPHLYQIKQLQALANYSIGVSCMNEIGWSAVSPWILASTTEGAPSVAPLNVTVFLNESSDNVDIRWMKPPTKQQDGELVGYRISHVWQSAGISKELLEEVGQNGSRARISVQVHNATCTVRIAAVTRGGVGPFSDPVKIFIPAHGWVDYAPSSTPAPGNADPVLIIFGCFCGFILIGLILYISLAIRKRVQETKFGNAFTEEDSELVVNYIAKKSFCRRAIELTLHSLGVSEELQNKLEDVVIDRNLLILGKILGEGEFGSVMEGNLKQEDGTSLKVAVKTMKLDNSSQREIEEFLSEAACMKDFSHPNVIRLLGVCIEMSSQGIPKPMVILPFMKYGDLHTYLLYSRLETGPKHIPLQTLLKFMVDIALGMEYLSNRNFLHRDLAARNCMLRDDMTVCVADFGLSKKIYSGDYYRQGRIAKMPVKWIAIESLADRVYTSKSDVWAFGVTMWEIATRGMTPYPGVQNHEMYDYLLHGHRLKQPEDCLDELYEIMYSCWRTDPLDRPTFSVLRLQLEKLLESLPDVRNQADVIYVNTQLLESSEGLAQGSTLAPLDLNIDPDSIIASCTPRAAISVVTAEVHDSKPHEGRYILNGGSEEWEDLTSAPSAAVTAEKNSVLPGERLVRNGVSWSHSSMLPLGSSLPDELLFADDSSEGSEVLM

Structure (SMILES)	target or system	assay	system	conditions	scale	quantity	value
CN(C)c1ccc(-c2oc3cc4ccccc4cc3c(=O)c2O)cc1	–	–	DMSO	together with: visible light 445-465 nm	–	CO yield	0.99
C=C(NC(=O)c1csc(-c2nc3c(cc2O)-c2nc(cs2)C(=O)NC(C(C)O)C(=O)NC(=C(C)OC)c2nc(cs2)C(=O)NC2c4nc(cs4)C(=O)NC(COC(=O)c4c5c6c(cccc6n4O)COC(=O)C(OC4CC(C)(O)C(N(C)C)C(C)O4)C2OC5)c2nc-3cs2)n1)C(N)=O (stereo not shown)	–	–	female Sprague-Dawley rat, plasma	intravenous, 18 mg/kg, single dose, infusion	–	Cmax	10.2 µg/mL
Cc1ncsc1-c1ccc(C(C)NC(=O)C2CC(O)CN2C(=O)C(NC(=O)CCCCCCCCCCN2CCCC(Nc3ncc(Cl)c(Nc4ccccc4S(=O)(=O)C(C)C)n3)C2)C(C)(C)C)cc1 (stereo not shown)	22Rv1	RNA-seq, item: ZNF425 mRNA	–	concentration not given	baseline: DMSO	log2 fold change	-1.91
O=C1NC2(CC2)COc2ncc(F)cc2[C@H]2COCCN2c2ccn3ncc1c3n2	Salmonella typhimurium	Ames test	TA1535	500 µg/plate, 48 h, together with: without S9	–	revertant colonies	10 ± 2 revertants/plate
OC[C@H]1O[C@@H](n2cnc3c(SCc4ccccc4)nc(Cl)nc32)C[C@@H]1O	–	UV absorbance	culture medium	stock diluted to 0.10 mM	–	solubility	21.4 µM (≈ 8.41 µg/mL)
Cc1cc(-c2ccc(C(=O)[C@@H]3CCCC[C@H]3C(=O)Nc3cnn4c3C(=O)NCC4)cc2)[nH]n1	–	–	human, faeces	oral, 200 mg, 0-72 h	baseline: dose	cumulative recovery of radioactivity	49.8%
CC[C@H](C)[C@H](NC(=O)[C@H](CCCCN)NC(=O)[C@H](CCC(=O)O)NC(=O)[C@H](CO)NC(=O)[C@H](Cc1ccccc1)NC(=O)[C@H](CC(C)C)NC(=O)[C@H](CCC(N)=O)NC(=O)[C@H](CO)NC(=O)[C@H](C)NC(=O)[C@H](CCCCN)NC(=O)[C@H](Cc1c[nH]cn1)NC(=O)[C@H](Cc1c[nH]c2ccccc12)NC(=O)[C@H](CCC(N)=O)NC(=O)[C@H](CCCCN)NC(=O)[C@H](CCCCN)NC(=O)[C@H](CC(C)C)NC(=O)CNC(=O)[C@H](C)NC(=O)[C@@H](NC(=O)[C@H](CO)NC(=O)[C@@H](N)CCSC)C(C)C)C(=O)N[C@@H](CO)C(=O)NCC(=O)N[C@@H](C)C(N)=O	–	circular dichroism	aqueous TFE	50 µM, pH 7.4, 20 °C	–	m value	2.55 ± 0.5 kcal/mol/M
O=C([O-])CN1CCN(CC(=O)[O-])CCN(CC(=O)NCC2CCC(C(=O)NC(Cc3ccc4ccccc4c3)C(=O)NCCCCC(NC(=O)NC(CCC(=O)O)C(=O)O)C(=O)O)CC2)CCN(CC(=O)[O-])CC1.[68Ga+3] (stereo not shown)	–	micro-PET/CT	mouse 22Rv1 xenograft, tumour	1 h post-injection	–	maximum tumour uptake	8.73 ± 1.03 %ID/g
C=C1CC[C@H](OCCCNC(=O)CCOCCOCCOCCOCCOCCOCCOCCOCCOCCOCCOCCOCCOCCOCCOCCOCCOCCOCCOCCOCCOCCOCCOCCOCCOCCOCCOCCOCCOCCOCCOCCOCCOCCOCCOCCOCCNC(=O)CCN2C(=O)CC(SC[C@H](NC(=O)[C@H](Cc3ccccc3)NC(=O)[C@H](CC(N)=O)NC(=O)[C@H](Cc3c[nH]cn3)NC(=O)[C@@H](NC(=O)[C@H](CC(=O)O)NC(=O)[C@H](CCC(N)=O)NC(=O)[C@H](CC(C)C)NC(=O)[C@H](CCCCN)NC(=O)[C@H](CCCCN)NC(=O)[C@H](CCCNC(=N)N)NC(=O)[C@H](CC(C)C)NC(=O)[C@H](Cc3c[nH]c4ccccc34)NC(=O)[C@H](CCC(=O)O)NC(=O)[C@@H](NC(=O)[C@H](CCCNC(=N)N)NC(=O)[C@H](CCC(=O)O)NC(=O)[C@H](CCSC)NC(=O)[C@H](CO)NC(=O)[C@H](CC(N)=O)NC(=O)[C@H](CC(C)C)NC(=O)[C@H](Cc3c[nH]cn3)NC(=O)[C@H](CCCCN)NC(=O)CNC(=O)[C@H](CC(C)C)NC(=O)[C@H](CC(N)=O)NC(=O)[C@H](Cc3c[nH]cn3)NC(=O)[C@H](CCSC)NC(=O)[C@H](CC(C)C)NC(=O)[C@H](CCC(N)=O)NC(=O)[C@@H](NC(=O)[C@H](CCC(=O)O)NC(=O)[C@H](CO)NC(=O)[C@@H](NC(=O)[C@@H](N)CO)C(C)C)[C@@H](C)CC)C(C)C)C(C)C)C(=O)O)C2=O)C/C1=C/C=C1\CCC[C@]2(C)[C@@H]([C@H](C)CCCC(C)(C)O)CC[C@@H]12 (stereo partly shown)	–	–	male Sprague-Dawley rat, plasma	subcutaneous, 300 µg/kg, single dose	–	Tmax	180 min
Nc1ncc(-c2cc(-c3cnn(CC(F)(F)F)c3)ncc2F)nc1C(=O)NC1CNCC(F)C1 (stereo not shown)	VEGFR2	KINOMEscan competition binding	–	1 µM	baseline: DMSO control	remaining binding	74%
CCC1CNC(CC)CN(C(C(=O)[O-])c2ccc(C(=O)[O-])cc2)C(CC)CN(CC(=O)[O-])C(CC)CN1.[Mn+2] (stereo not shown)	–	ICP-MS	BALB/c mouse, blood	intravenous, 0.05 mmol/kg, 1440 min, without anaesthesia	–	Mn content	0.08 ± 0.02 µg/g
COc1cccc(OC)c1-c1cc(C(=O)NC2(C(=O)O)C3CC4CC(C3)CC2C4)nn1-c1ccc(C(=O)N(C)CCOCCN(C)C(=O)[C@H](CCCCNC(=O)[C@H](CC(C)C)NC(=O)C2OC2C(=O)O)NC(=O)CN2CCN(CC(=O)[O-])CCN(CC(=O)[O-])CCN(CC(=O)[O-])CC2)cc1C(C)C.[177Lu+3] (mixture of isomers)	–	–	mouse HT-29 xenograft	72 h, biodistribution	baseline: tumour over small intestine	tumour-to-small intestine ratio	21.7
Cc1nc(N)nc2c1C(=O)N[C@@H](c1ccc(F)cc1-c1cccc(O[11CH3])n1)C2	–	ex vivo biodistribution	mice, MDA-MB-231 subcutaneous xenograft, muscle	60 min post-injection, baseline, vehicle pre-treatment	–	SUV	0.6 ± 0.04
CCCC[C@H](OC(C)=O)c1ccccc1C(=O)O	–	–	beagle dog, both sexes, whole blood	intravenous, 1.5 mg/kg, day 7, fit of 1 h data	–	half-life	14.4 ± 1.2 min
CCC(C(=O)Nc1ccc(C(N)=O)c(F)c1)n1cc(OC)c(-c2cc(Cl)ccc2-n2cc(C(F)(F)F)nn2)cc1=O (stereo not shown)	–	–	male humans	oral, 25 mg, fasted	–	subjects with any adverse event	0%
CC(C)(C)C(=O)Nc1ccc2[nH]c(CN3CCC(N(CCCN4CCOCC4)CC4OC(n5cnc6c(N)ncnc65)C(O)C4O)CC3)nc2c1 (stereo not shown)	–	–	male Sprague-Dawley rat, plasma	intravenous, 20 mg/kg, 15 min	–	concentration	2.44 µg/mL
COC1CN([C@H]2CC[C@H]([C@@]3(C)Oc4c(Cl)cc(C(=O)NCc5c(SC)cc(C)[nH]c5=O)c(C)c4O3)CC2)C1	–	RNA-seq, item: SMPDL3A mouse homolog	mouse, HT-1376 xenograft, whole blood	dose not given	baseline: vehicle	log2 fold change	0.144
CN1CCCNC(=O)c2cccc(c2)C(=O)NCCCN(C)CCCNc2cccc3c2C(=O)c2cccc(c2C3=O)NCCC1	SAS	RNA-Seq, item: SMYD4 mRNA	–	1 µM, 6 h	baseline: untreated cells	log2 fold change	0.916
CC[C@H](C)[C@@H]1NC(=O)[C@H](Cc2ccc(O)cc2)NC(=O)CCCSC[C@@H](C(=O)N(CC(=O)N[C@@H](CC(C)C)C(=O)NCC(N)=O)Cc2ccc(F)cc2)NC(=O)[C@H](CC(N)=O)NC(=O)[C@H](CCC(N)=O)NC1=O	–	–	human	intranasal, 400 µg repeated doses	–	drug-related dry mouth	33%

Structure (SMILES)	target or system	assay	system	conditions	scale	quantity	value
CCn1nc(Cl)c2c1-c1cnc(N)c(c1)O[C@H](C)c1cc(F)ccc1-c1nn(C)cc1C2	–	–	Balb/c nude mouse female, plasma	0.06 mg/kg single dose, 1 h	–	free plasma concentration	0.33 nM
Cc1nn(-c2cccc(N)c2)c(=O)c2cnc(Nc3ccc(N4CCNCC4)cc3)nc12	MERTK (Homo sapiens, UniProt Q12866)	enzyme activity, inhibitor	–	–	–	IC50	> 10 µM
COc1cccc(OC)c1-c1cc(C(=O)NC2(C(=O)O)C3CC4CC(C3)CC2C4)nn1-c1ccc(C(=O)N(C)CCCN(C)C(=O)[C@H](CCCCNC(=O)[C@H](CC(C)C)NC(=O)C2OC2C(=O)O)NC(=O)CN2CCN(CC(=O)[O-])CCN(CC(=O)[O-])CCN(CC(=O)[O-])CC2)cc1C(C)C.[177Lu+3] (mixture of isomers)	–	–	mouse, HT-29 xenograft	24 h post injection, biodistribution	baseline: tumour over lung uptake	tumour-to-lung ratio	1.56
O=C(Nc1cnccc1-c1ccc([18F])nc1)c1ccnc(NC(=O)C2CC2)c1	–	–	FVB/NJ mice, both sexes, brain	intravenous, 40 min, median, P-gp inhibitor pretreatment, together with: tariquidar 15 mg/kg iv	–	SUV	0.164
C=CC(=O)Nc1cc(Nc2nccc(-c3c[nH]c4ccccc34)n2)c(OC)cc1N(C)CCN(C)C	–	storage stability	human plasma	10 d, -80 °C, LLOQ level	–	recovery	101%
CNS(=O)(=O)Nc1nccc(Cc2c(C)c3ccc(Oc4ncccc4F)cc3oc2=O)c1F	SW948	cell viability	–	7 days	–	IC50	0.0134 µM
CN1CC(COc2cccc3c(NCc4ccccc4)cc(Cl)nc23)OC1=O (stereo not shown)	–	–	C57BL/6 mouse, heart	oral, 30 mg/kg, 0.5 h	baseline: heart over plasma	tissue/plasma ratio	0.36
CCCC[C@H](NC(=O)CCCCCCCNC(=O)CN1CCN(CC(=O)O)CCN(CC(=O)O)CC1)C(=O)N[C@H]1CC(=O)NCCCC[C@@H](C(N)=O)NC(=O)[C@H](Cc2c[nH]c3ccccc23)NC(=O)[C@H](CCCNC(=N)N)NC(=O)[C@@H](Cc2ccccc2)NC(=O)[C@H](Cc2c[nH]cn2)NC1=O [technetium-99m labelled]	–	–	C57 mouse, liver	intravenous, 0.037 MBq, 0.5 h	–	tissue uptake	2.78 ± 1.09 %ID/g
COc1cccc(OC)c1-c1cc(C(=O)NC2(C(=O)O)C3CC4CC(C3)CC2C4)nn1-c1ccc(C(=O)NCCNC(=O)[C@H](CCCCNC(=O)[C@H](CC(C)C)NC(=O)C2OC2C(=O)O)NC(=O)CN2CCN(CC(=O)[O-])CCN(CC(=O)[O-])CCN(CC(=O)[O-])CC2)cc1C(C)C.[177Lu+3] (mixture of isomers)	–	–	mouse, HT-29 xenograft	72 h post injection, biodistribution	baseline: tumour over lung uptake	tumour-to-lung ratio	8.76
O=C1C2CC3CC1CC(C(=O)N1CCN(c4ccc([N+](=O)[O-])c5ncccc45)CC1)(C3)C2	Salmonella typhimurium	Ames test	TA98	0.02 µg/well, without S9	baseline: vehicle	revertant fold increase	1.4
O=C(NS(=O)(=O)c1cccs1)c1cc2ccccc2n1Cc1ccc(Br)c2ccccc12	–	–	mouse, plasma	oral, 1 mg/kg	–	MRT(0-last)	54 min
C=CC(=O)Nc1cccc(Cn2ncc3cnc(Nc4cnn(CCOC)c4)nc32)c1	TAOK3 human	binding, KINOMEscan	–	100 nM	lower = stronger binding	percent of control	44%
COc1ccc(C2CC(Nc3ccc(-c4ccc(NC5=NN(C(C)=O)C(c6ccc(OC)cc6)C5)cc4)cc3)=NN2C(C)=O)cc1 (stereo not shown)	–	shake flask UV/Vis	n-octanol/water	–	–	logP	6.36
COc1ccnc(C(=O)N[C@H]2COC(=O)[C@H](Cc3ccccc3)[C@@H](OC(=O)C(C)C)[C@H](C)OC2=O)c1O	–	–	bovine milk	-18 °C	–	storage stability of residues	6 months
Cc1cc(NC(=O)c2ccc(Br)cc2)n[nH]1	–	–	octanol/buffer	pH 11	–	logP	2.7
CCCC[C@H](NC(=O)COCCOCCNC(=O)CN1CCN(CC(=O)O)CCN(CC(=O)O)CC1)C(=O)N[C@H]1CC(=O)NCCCC[C@@H](C(N)=O)NC(=O)[C@H](Cc2c[nH]c3ccccc23)NC(=O)[C@H](CCCNC(=N)N)NC(=O)[C@@H](Cc2ccccc2)NC(=O)[C@H](Cc2c[nH]cn2)NC1=O [technetium-99m labelled]	–	–	C57 mouse, heart	intravenous, 0.037 MBq, 0.5 h	–	tissue uptake	1.42 ± 0.62 %ID/g
CNCc1ccc(-c2cc(=O)c3ccc4[nH]c(C(F)(F)F)nc4c3o2)cc1	–	–	ICR mice, plasma	oral, 5 mg/kg	–	AUC	0.405 µg·h/mL
O=C(Nc1cnccc1-c1ccc([18F])cc1)c1ccnc(NC(=O)C2CC2)c1	–	–	mice, transgenic, GSK-3β, early-stage, small intestine	intravenous, dose not given, 120 min	–	SUV	1.04

Some of these lines once more:
Structure (SMILES)	target or system	assay	system	conditions	scale	quantity	value
C=CC(=O)Nc1cc(Nc2nccc(-c3c[nH]c4ccccc34)n2)c(OC)cc1N(C)CCN(C)C	–	storage stability	human plasma	10 d, -80 °C, LLOQ level	–	recovery	101%
CNS(=O)(=O)Nc1nccc(Cc2c(C)c3ccc(Oc4ncccc4F)cc3oc2=O)c1F	SW948	cell viability	–	7 days	–	IC50	0.0134 µM
CN1CC(COc2cccc3c(NCc4ccccc4)cc(Cl)nc23)OC1=O (stereo not shown)	–	–	C57BL/6 mouse, heart	oral, 30 mg/kg, 0.5 h	baseline: heart over plasma	tissue/plasma ratio	0.36
CCCC[C@H](NC(=O)CCCCCCCNC(=O)CN1CCN(CC(=O)O)CCN(CC(=O)O)CC1)C(=O)N[C@H]1CC(=O)NCCCC[C@@H](C(N)=O)NC(=O)[C@H](Cc2c[nH]c3ccccc23)NC(=O)[C@H](CCCNC(=N)N)NC(=O)[C@@H](Cc2ccccc2)NC(=O)[C@H](Cc2c[nH]cn2)NC1=O [technetium-99m labelled]	–	–	C57 mouse, liver	intravenous, 0.037 MBq, 0.5 h	–	tissue uptake	2.78 ± 1.09 %ID/g
